Measurements of several laboratories.
Every numbered part comes from another study and shows a few of its results, in no order. Values joined by “and” are separate records of one study, mostly repeats; a detail may differ.
Chain of UniProt P42336 (whole entry, unmodified, looked up): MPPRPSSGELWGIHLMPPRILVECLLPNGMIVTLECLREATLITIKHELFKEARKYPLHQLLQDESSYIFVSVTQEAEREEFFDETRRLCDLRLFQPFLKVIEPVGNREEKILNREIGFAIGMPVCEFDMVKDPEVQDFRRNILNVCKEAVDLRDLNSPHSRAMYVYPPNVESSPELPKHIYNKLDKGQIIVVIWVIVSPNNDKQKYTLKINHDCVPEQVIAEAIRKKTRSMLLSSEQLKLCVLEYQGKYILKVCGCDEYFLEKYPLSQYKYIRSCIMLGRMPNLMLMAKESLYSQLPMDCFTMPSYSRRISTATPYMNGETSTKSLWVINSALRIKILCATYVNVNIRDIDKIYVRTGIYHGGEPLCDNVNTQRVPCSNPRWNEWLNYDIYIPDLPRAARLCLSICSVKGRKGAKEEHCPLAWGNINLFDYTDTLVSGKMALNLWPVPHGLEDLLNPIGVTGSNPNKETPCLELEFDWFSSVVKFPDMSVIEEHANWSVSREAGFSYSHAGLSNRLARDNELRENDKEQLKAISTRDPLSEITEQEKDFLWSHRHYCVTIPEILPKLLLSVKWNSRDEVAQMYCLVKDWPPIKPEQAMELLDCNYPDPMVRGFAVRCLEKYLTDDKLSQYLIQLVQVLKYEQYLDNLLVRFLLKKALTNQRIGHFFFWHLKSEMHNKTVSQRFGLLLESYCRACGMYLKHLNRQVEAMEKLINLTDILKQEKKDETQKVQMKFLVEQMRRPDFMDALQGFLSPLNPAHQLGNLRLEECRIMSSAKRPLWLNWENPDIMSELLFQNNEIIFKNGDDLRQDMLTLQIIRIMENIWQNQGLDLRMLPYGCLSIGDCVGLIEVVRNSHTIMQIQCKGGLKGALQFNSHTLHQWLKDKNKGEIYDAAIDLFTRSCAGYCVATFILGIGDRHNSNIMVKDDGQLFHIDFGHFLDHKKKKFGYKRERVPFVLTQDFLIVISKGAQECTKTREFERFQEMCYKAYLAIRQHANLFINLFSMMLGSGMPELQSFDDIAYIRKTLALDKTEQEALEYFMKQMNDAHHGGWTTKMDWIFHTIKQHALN
Chain of UniProt Q9HCP0 (whole entry, looked up): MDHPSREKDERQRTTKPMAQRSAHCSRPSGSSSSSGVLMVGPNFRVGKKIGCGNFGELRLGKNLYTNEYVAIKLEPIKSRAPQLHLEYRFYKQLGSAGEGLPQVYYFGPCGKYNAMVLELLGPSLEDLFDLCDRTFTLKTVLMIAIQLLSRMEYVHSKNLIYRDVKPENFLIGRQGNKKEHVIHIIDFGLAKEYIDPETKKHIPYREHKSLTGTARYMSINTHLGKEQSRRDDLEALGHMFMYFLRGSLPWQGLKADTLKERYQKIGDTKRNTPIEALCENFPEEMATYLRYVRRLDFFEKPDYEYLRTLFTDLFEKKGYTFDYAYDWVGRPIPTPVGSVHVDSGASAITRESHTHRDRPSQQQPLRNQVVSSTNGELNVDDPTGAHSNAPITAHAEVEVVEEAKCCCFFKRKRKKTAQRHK
Chain of UniProt P42338 (whole entry, looked up): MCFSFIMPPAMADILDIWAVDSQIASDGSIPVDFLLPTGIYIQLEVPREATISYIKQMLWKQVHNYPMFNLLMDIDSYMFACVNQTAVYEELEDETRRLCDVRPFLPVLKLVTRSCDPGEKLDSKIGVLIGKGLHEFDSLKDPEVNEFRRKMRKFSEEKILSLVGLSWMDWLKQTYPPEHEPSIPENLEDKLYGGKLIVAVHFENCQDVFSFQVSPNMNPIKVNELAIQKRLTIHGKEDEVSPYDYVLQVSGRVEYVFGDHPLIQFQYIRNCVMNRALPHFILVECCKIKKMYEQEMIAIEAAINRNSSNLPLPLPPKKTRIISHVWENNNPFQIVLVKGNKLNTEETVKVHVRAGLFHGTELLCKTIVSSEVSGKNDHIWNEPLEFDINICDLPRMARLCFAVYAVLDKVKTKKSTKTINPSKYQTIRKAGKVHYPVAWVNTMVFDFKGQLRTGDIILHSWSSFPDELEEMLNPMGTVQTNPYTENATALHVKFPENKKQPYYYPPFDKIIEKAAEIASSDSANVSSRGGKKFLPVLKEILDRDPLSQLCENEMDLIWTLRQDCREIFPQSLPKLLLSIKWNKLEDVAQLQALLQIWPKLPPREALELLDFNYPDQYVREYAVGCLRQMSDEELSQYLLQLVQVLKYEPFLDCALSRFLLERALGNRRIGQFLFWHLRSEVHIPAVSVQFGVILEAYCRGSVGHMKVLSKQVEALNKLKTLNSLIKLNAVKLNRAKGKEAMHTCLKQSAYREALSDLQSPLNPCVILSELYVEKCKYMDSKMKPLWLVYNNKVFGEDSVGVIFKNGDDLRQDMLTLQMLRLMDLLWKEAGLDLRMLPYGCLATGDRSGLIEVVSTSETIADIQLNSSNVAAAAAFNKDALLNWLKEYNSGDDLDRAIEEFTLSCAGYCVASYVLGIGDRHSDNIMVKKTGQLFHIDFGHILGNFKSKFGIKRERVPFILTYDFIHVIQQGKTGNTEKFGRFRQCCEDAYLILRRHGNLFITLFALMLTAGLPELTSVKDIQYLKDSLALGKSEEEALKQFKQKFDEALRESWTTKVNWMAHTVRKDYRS

Block 1 — effect on: acetyl-histone H4 peptide binding; method: AlphaScreen displacement; tested at: 50 µM
Target: Bromodomain-containing protein 4, BD1 (BRD4, Homo sapiens, UniProt O60885)
With `O=c1[nH]cnc2scc(-c3ccc(Cl)cc3)c12` the inhibition was 79.7%.
The inhibition of `CCC(Sc1ccc2nnc(-c3ccc(OC)c(OC)c3)n2n1)C(=O)O` (stereo not shown) is reported as 7.15%.
For `COc1ccc(Nc2nccc(-c3ccc(C#N)cc3)n2)cc1`, the inhibition was 21.4%.
`c1cncc(-c2cnc3c(N4CCOCC4)nccn23)c1` gave an inhibition of 7.6%.
For `Nc1nc(Nc2ccccc2)sc1C(=O)c1ccc(Cl)s1`, the inhibition was 67.8%.
`COc1ccc(-c2cc3c(C)nc(N)nc3n([C@H]3CC[C@H](OCCO)CC3)c2=O)cn1.O.O` has an inhibition of -19.8%.
`O=C(Nc1ccc(F)cc1)c1n[nH]c2ccccc12` has an inhibition of 6.65%.
For `O=C(O)CCC(=O)Nc1ccccc1-c1nc2ccccc2[nH]c1=O`, the inhibition was 13.4%.
`CC(=O)Nc1ccc(Nc2nc(-c3sc(N)nc3C)cs2)cc1` has an inhibition of 67%.
`CCCOc1ccc(C=C2SC(=O)N(CCN)C2=O)cc1` gave an inhibition of 22%.
For `N#CC(=Cc1ccc(O)c(O)c1)C(=O)NCc1ccccc1`, the inhibition was 29.9%.
For `Nc1ccc(-c2c3ccc(=O)cc-3oc3cc(O)ccc23)cc1C(=O)O`, the inhibition was 8.2%.
`CN(C)CCCn1cc(C2=C(c3c[nH]c4ccccc34)C(=O)NC2=O)c2ccccc21.Cl` has an inhibition of 86%.
For `O=C(O)c1cc(N=Nc2ccc(S(=O)(=O)Nc3ccccn3)cc2)ccc1O`, the inhibition was 16.9%.
`O=C(Nc1ccc(O)c(-c2nc3ccccc3s2)c1)c1ccco1` gave an inhibition of 8.35%.
`O=C(NCC1CCCO1)c1n[nH]c2ccccc12` (stereo not shown) has an inhibition of 1.45%.
With `O=C(Nc1ccc2[nH]ncc2c1)c1c(F)c(F)c(F)c(F)c1F` the inhibition was -1.6%.
For `Nc1nc(NCc2ccc(F)cc2)c2nc[nH]c2n1`, the inhibition was 26.2%.

Block 2 — effect on: enzyme activity; mode: inhibitor; tested at: 77 µM; baseline: untreated
Target: DNA polymerase theta, ATPase domain (POLQ, Homo sapiens, UniProt O75417)
Chain of UniProt O75417 (whole entry, unmodified, looked up): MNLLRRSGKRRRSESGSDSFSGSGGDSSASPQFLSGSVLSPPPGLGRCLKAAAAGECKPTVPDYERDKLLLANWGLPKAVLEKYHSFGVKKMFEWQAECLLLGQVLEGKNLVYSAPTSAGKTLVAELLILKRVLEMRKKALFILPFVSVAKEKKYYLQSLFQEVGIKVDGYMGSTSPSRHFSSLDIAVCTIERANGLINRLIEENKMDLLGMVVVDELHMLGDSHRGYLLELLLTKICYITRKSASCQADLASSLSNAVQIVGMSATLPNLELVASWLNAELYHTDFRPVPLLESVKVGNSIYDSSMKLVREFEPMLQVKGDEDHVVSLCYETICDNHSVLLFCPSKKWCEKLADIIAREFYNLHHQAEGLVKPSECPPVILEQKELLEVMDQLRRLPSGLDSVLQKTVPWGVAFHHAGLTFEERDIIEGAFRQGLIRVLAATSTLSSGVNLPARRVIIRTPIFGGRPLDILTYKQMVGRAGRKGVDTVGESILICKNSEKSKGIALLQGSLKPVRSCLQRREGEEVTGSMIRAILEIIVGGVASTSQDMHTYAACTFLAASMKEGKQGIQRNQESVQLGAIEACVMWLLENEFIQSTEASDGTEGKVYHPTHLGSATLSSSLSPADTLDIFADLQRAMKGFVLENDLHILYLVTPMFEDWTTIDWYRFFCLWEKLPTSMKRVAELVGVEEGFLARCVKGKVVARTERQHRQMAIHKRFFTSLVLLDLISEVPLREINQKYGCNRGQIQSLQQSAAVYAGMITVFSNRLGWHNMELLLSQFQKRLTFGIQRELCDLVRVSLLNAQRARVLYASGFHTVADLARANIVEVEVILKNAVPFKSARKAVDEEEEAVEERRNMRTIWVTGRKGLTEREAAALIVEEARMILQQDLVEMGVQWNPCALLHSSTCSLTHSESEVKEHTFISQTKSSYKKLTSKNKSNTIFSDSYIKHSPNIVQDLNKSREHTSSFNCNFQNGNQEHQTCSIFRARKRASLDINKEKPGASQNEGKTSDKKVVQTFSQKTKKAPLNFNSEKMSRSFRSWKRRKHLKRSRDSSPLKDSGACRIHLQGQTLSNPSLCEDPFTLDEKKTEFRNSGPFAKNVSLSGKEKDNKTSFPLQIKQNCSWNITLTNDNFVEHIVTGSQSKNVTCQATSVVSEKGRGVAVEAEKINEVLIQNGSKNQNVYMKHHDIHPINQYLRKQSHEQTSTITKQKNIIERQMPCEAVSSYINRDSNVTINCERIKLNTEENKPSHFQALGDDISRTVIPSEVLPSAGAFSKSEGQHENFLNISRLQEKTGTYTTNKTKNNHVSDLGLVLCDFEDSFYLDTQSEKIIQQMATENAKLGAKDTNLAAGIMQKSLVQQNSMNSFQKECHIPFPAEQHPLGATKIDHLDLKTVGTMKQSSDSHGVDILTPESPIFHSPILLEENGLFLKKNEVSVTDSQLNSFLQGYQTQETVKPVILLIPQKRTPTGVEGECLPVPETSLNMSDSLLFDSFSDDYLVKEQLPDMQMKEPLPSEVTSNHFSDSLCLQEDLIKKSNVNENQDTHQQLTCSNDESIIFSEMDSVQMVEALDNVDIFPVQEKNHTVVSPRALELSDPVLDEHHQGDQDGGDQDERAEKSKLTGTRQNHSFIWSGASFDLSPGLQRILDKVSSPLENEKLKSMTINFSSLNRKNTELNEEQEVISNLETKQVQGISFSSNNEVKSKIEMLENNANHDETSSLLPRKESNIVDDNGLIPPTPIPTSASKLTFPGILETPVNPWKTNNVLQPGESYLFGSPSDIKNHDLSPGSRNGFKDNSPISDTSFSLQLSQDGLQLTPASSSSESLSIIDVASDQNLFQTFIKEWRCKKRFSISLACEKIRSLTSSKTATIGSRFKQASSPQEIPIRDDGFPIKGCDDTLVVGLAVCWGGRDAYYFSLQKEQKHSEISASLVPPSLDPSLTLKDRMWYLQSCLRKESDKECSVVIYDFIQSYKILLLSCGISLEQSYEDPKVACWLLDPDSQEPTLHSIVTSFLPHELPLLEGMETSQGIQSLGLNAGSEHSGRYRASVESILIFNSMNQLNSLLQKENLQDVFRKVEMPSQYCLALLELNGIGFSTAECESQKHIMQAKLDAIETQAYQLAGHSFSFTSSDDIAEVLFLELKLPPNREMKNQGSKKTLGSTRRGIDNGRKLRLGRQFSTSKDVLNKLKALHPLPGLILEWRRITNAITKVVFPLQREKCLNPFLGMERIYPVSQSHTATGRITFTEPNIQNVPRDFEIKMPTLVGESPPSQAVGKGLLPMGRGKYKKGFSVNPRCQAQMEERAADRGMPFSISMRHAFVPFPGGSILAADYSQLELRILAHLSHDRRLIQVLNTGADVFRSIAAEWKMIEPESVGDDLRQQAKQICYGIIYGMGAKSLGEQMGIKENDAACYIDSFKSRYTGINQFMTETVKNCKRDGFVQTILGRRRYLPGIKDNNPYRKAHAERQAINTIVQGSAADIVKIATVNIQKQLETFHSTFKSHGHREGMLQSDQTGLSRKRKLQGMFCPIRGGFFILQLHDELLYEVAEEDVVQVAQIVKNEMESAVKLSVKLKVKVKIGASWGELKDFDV
`Cn1c(=O)c2[nH]cnc2n(C)c1=O` has a remaining activity of 99.9% and 108% and 81.5%.
`N=C(N)SCCc1c[nH]cn1` gave a remaining activity of 97.2%.
With `NS(=O)(=O)c1cccc2c1c([N+](=O)[O-])cc1nc(O)c(O)nc12` the remaining activity was 101%.
`CCCCCCCCCCCCCCCCCCN(CCCCCCCCCCCCCCCCCC)CCCN(CCO)CCO` has a remaining activity of 108%.
`Fc1ccc(-c2nc3n(c2-c2ccncc2)CCS3)cc1` gave a remaining activity of 95.6%.
`C=CCNC1=C2C[C@@H](C)C[C@H](OC)[C@H](O)[C@@H](C)/C=C(\C)[C@H](OC(N)=O)[C@@H](OC)/C=C\C=C(/C)C(=O)NC(=CC1=O)C2=O` gave a remaining activity of 89.9%.
`NC[C@H]1O[C@@H](n2cnc3c(N)ncnc32)[C@H](O)[C@@H]1O` has a remaining activity of 97.2%.
For `O=C(Nc1ccncc1)c1cc([N+](=O)[O-])ccc1Cl`, the remaining activity was 79.7%.
`OCCC#Cc1nc(-c2ccc(F)cc2)c(-c2ccncc2)n1CCCc1ccccc1` gave a remaining activity of 115% and 113% and 114%.
`CNC(=O)c1ccccc1Nc1nc(Nc2ccc(N3CCOCC3)cc2OC)ncc1Cl` has a remaining activity of 98.3%.
`CC[C@]1(O)C[C@@H]2CN(CCc3c([nH]c4ccccc34)[C@@](C(=O)OC)(c3cc4c(cc3OC)N(C)[C@H]3[C@@](O)(C(=O)OC)[C@H](OC(C)=O)[C@]5(CC)C=CCN6CC[C@]43[C@@H]65)C2)C1` gave a remaining activity of 98.6%.
`O=C(O)C[C@H](O)C[C@H](O)/C=C/c1c(C2CC2)nc2ccccc2c1-c1ccc(F)cc1` has a remaining activity of 94.4%.
`CCOC(=O)[C@]12CC1/C(=N\O)c1ccccc1O2` (stereo partly shown) gave a remaining activity of 100%.
For `Cc1ccc2nc(NCCN)c3ncc(C)n3c2c1`, the remaining activity was 98%.

Block 3 — method: competition with immobilised ligand; tested at: 1 µM
SMILES: CC(=O)N1CCC(c2ccc(C(=O)NC(=N)N)cc2C(F)(F)F)CC1
BUB1 (Homo sapiens, UniProt O43683); cell-free assay — remaining binding: 85%.
It gave 100% for remaining binding (CDC42BPA (Homo sapiens, UniProt Q5VT25); cell-free assay).
PIK3CB (Homo sapiens, UniProt P42338); cell-free assay — remaining binding: 100%.
The remaining binding was 100% (EPHB6 (Homo sapiens, UniProt O15197); cell-free assay).
For BRAF (Homo sapiens, UniProt P15056); cell-free assay: remaining binding read 100%.
It gave 100% for remaining binding (PIK3CA (Homo sapiens, UniProt P42336, E545A); cell-free assay).
For CSNK1G1 (Homo sapiens, UniProt Q9HCP0); cell-free assay: remaining binding read 100%.
It gave 100% for remaining binding (SRPK3 (Homo sapiens, UniProt Q9UPE1); cell-free assay).
It gave 100% for remaining binding (MATK (Homo sapiens, UniProt P42679); cell-free assay).
The remaining binding was 100% (DAPK1 (Homo sapiens, UniProt P53355); cell-free assay).
It gave 100% for remaining binding (MAP4K3 (Homo sapiens, UniProt Q8IVH8); cell-free assay).
TYRO3 (Homo sapiens, UniProt Q06418); cell-free assay — remaining binding: 100%.
It gave 96% for remaining binding (TEK (Homo sapiens, UniProt Q02763); cell-free assay).
It gave 100% for remaining binding (CSNK1G2 (Homo sapiens, UniProt P78368); cell-free assay).
It gave 100% for remaining binding (DAPK2 (Homo sapiens, UniProt Q9UIK4); cell-free assay).
The remaining binding was 86% (CDK7 (Homo sapiens, UniProt P50613); cell-free assay).
The remaining binding was 96% (GRK2 (Homo sapiens, UniProt P25098); cell-free assay).
It gave 100% for remaining binding (PTK6 (Homo sapiens, UniProt Q13882); cell-free assay).
It gave 100% for remaining binding (MAPK4 (Homo sapiens, UniProt P31152); cell-free assay).
PIK3CA (Homo sapiens, UniProt P42336, E545K); cell-free assay — remaining binding: 76%.
The remaining binding was 100% (MAP3K5 (Homo sapiens, UniProt Q99683); cell-free assay).
The remaining binding was 100% (MAPK6 (Homo sapiens, UniProt Q16659); cell-free assay).
It gave 100% for remaining binding (PAK5 (Homo sapiens, UniProt Q9P286); cell-free assay).
For STK38L (Homo sapiens, UniProt Q9Y2H1); binding: remaining binding read 99%.
The remaining binding was 93% (FLT3 (Homo sapiens, UniProt P36888, R834Q); cell-free assay).

Block 4 — effect on: enzyme activity; mode: inhibitor; tested at: 0.5 µM; baseline: control
Target: MAP/microtubule affinity-regulating kinase 3 (MARK3, Homo sapiens, UniProt P27448)
Construct (P27448 1-753): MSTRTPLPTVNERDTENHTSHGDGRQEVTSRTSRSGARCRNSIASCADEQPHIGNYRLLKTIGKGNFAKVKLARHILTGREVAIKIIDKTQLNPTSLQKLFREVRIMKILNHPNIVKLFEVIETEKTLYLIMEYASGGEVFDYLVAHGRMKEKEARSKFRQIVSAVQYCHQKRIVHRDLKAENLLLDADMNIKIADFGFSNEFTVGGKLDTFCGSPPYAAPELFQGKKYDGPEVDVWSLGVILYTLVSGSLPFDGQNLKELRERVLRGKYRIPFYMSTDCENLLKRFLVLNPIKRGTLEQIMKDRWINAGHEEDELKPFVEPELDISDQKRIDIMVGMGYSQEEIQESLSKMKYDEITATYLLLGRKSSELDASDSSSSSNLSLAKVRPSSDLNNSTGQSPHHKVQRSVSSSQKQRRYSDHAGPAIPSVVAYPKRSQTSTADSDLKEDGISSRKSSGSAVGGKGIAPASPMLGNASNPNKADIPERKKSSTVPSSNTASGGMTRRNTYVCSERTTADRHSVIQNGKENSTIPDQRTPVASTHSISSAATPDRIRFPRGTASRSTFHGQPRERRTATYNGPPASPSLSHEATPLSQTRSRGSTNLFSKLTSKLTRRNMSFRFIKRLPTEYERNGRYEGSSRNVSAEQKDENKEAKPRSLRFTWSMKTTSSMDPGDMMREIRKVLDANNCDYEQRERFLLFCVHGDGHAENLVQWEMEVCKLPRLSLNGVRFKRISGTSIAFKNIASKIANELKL
`Cc1cncc2cccc(S(=O)(=O)N3CCCN(C(=O)CN)C[C@@H]3C)c12` has a remaining activity of 98.9%.
`CC(=O)c1ccc(N2CCOCC2)cc1O` gave a remaining activity of 108%.
With `N#CC(=C(N)Sc1ccc(N)cc1)c1ccccc1C(F)(F)F` the remaining activity was 107%.
The remaining activity of `Nc1ncnc2c1cnn2-c1ccccc1` is reported as 86.1%.
`CCc1[nH]c(-c2ccc(OC)cc2)nc1-c1ccncc1` has a remaining activity of 101%.
`O=C1NC(=O)C(c2c[nH]c3ccccc23)=C1c1c[nH]c2ccccc12` gave a remaining activity of 98.5%.
The remaining activity of `CC#CC(=O)Nc1cc2c(Nc3ccc(F)c(Cl)c3)ncnc2cn1` is reported as 107%.
For `Oc1ccc(Nc2nc(-c3ccc(Cl)cc3)cs2)cc1`, the remaining activity was 95.3%.
The remaining activity of `Fc1ccc(-c2nc3n(c2-c2ccncc2)CCS3)cc1` is reported as 88.9%.
`Nc1nc(Nc2ccc(S(N)(=O)=O)cc2)nn1C(=O)c1c(F)cccc1F` has a remaining activity of 67.6%.
The remaining activity of `NC(=O)c1ccc(N(C(N)=O)c2c(F)cccc2F)nc1-c1ccc(F)cc1F` is reported as 98.1%.
With `Cc1ccc(NC2=CC(=O)c3sc(C)nc3C2=O)cc1` the remaining activity was 95.1%.
`O=S(=O)(NCCNC/C=C/c1ccc(Br)cc1)c1cccc2cnccc12` has a remaining activity of 96.2%.
With `COc1ccc(S(=O)(=O)N(CCO)c2ccccc2CN(C)CC=Cc2ccc(Cl)cc2)cc1` the remaining activity was 102%.
`CCCC(=O)Oc1ccc2[nH]c(C(=O)c3cc4ccccc4[nH]3)cc2c1` has a remaining activity of 92.1%.
The remaining activity of `CC(C)(C)n1nc(Cc2cccc3ccccc23)c2c(N)ncnc21` is reported as 81.5%.
`CSc1nc(-c2ccnc(N[C@@H](C)c3ccccc3)c2)c(-c2ccc(F)cc2)[nH]1` (racemic) gave a remaining activity of 100%.
`O=C1Cc2c([nH]c3ccc([N+](=O)[O-])cc23)-c2ccccc2N1` has a remaining activity of 67.7%.
`COc1cc(Nc2c(C#N)cnc3cc(OCCCN4CCN(C)CC4)c(OC)cc23)c(Cl)cc1Cl` has a remaining activity of 65.4%.
With `Nc1nccc(-c2c(-c3ccc(F)cc3)ncn2C2CCNCC2)n1` the remaining activity was 103%.
`CC[n+]1c(/C=C/N(C)c2ccccc2)n(-c2ccccc2)c2ccc(-c3nc4ccccc4s3)cc21` has a remaining activity of 98.8%.
`Cc1cc(Nc2nc(-c3ccccc3)nc3ccccc23)n[nH]1` has a remaining activity of 89%.

Some of these lines once more (block 3):
PIK3CB (Homo sapiens, UniProt P42338); cell-free assay — remaining binding: 100%.
The remaining binding was 100% (EPHB6 (Homo sapiens, UniProt O15197); cell-free assay).
TYRO3 (Homo sapiens, UniProt Q06418); cell-free assay — remaining binding: 100%.
For STK38L (Homo sapiens, UniProt Q9Y2H1); binding: remaining binding read 99%.
It gave 100% for remaining binding (CSNK1G2 (Homo sapiens, UniProt P78368); cell-free assay).
The remaining binding was 86% (CDK7 (Homo sapiens, UniProt P50613); cell-free assay).
It gave 100% for remaining binding (PTK6 (Homo sapiens, UniProt Q13882); cell-free assay).
It gave 100% for remaining binding (MATK (Homo sapiens, UniProt P42679); cell-free assay).
